Measured values pooled from the literature.
Each numbered part is a random draw from the data of one study; scales do not carry over between parts. Changes are numbered by the printed parent chain.
Sequence of UniProt P35367 (whole entry, looked up): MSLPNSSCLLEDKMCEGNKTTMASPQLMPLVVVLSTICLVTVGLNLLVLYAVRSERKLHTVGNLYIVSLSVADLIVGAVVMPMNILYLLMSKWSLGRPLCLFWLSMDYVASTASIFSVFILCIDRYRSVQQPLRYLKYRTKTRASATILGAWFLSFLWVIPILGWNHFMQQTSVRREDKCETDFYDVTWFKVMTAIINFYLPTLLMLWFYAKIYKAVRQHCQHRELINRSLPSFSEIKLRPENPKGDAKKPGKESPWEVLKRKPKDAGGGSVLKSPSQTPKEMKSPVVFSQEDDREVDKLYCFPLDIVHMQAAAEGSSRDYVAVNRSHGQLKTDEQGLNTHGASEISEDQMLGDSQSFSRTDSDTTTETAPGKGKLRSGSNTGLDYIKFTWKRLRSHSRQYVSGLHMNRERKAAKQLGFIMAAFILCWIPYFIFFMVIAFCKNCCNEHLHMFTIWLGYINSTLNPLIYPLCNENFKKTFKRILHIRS

Set 1 — method: aptamer microarray, sandwich; molecule type: DNA with 2'F-ANA; medium: in vitro; tested at: 200 nM; with: Cy3 exosite-II aptamer, 400 nM; direction: higher = stronger binding; strand: GGTTGGTGTGGTTGG
Target: Prothrombin, mature alpha-thrombin (F2, Homo sapiens, UniProt P00734)
Setting: whole 15-mer aptamer, many near background
Modification | mean fluorescence intensity [a.u.]
2'F-ANA at 2 3 5 6 7 8 10 12 13 15 | 90.1
2'F-ANA at 2 3 8 13 14 | 416
2'F-ANA at 1 3 6 11 14 15 | 74
2'F-ANA at 1 4 5 7 9 13 15 | 48.5
2'F-ANA at 1 3 4 5 7 8 9 10 14 15 | 60.5
2'F-ANA at 2 8 9 10 11 13 14 15 | 76.2
2'F-ANA at 2 6 7 8 9 11 13 14 15 | 113
2'F-ANA at 1 2 3 6 7 8 11 | 215

Set 2 — target: OGT, full length, His-tagged (human); method: phage display, sequencing; medium: in vitro; tested at: 1 µg OGT; relative to: input library; direction: higher = stronger binding
Setting: single substitutions, 15-mer displayed peptide, unchanged parent 6.14
Starting sequence: peptide; VAYPNSYMPKYQIST; partner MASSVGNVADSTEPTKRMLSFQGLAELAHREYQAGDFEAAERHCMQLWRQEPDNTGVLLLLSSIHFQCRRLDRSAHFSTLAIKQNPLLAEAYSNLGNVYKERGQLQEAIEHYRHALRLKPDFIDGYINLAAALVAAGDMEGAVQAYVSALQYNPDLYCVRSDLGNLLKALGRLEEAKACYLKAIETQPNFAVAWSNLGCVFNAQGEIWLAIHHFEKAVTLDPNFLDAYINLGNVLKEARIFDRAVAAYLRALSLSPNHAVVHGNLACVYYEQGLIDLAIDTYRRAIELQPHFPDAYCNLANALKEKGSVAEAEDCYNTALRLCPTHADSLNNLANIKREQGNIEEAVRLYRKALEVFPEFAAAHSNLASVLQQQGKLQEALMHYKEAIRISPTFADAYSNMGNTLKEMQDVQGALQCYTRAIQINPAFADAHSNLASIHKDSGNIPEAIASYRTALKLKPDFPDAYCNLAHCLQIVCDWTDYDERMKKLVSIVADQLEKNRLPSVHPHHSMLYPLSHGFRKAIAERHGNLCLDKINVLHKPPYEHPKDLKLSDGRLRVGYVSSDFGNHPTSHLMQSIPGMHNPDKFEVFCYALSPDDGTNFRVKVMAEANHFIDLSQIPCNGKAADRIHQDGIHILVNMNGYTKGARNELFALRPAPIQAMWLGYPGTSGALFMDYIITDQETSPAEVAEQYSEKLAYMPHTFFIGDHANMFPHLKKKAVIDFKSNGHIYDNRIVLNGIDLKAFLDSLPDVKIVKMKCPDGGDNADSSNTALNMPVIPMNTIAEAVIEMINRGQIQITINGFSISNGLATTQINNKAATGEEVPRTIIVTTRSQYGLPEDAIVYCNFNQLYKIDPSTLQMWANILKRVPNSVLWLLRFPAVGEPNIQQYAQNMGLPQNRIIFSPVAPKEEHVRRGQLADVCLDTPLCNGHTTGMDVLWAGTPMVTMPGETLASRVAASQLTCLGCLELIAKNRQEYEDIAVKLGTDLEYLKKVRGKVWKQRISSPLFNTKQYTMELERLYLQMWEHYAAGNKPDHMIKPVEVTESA
Change | fold enrichment [fold]
Y11E | 3.51
V1G | 7.04
T15A | 2.88
T15E | 0.829
A2W | 0.379
N5G | 6.68
Y7K | 0.661
Y7P | 0.319

Further values, each from its own experiment — tested at: 10 µM
Compound | target or system | assay | conditions | quantity | result
CCOc1ccc(NC(C)=O)cc1 | Huh-7 |  | 24 h | viability | 104%
CC(=O)Nc1c(C(C)=O)c(=O)n(C)c2nc(-c3ccc(Cl)cc3Cl)c(-c3ccc(Cl)cc3)cc12 | HRH1 (Homo sapiens, UniProt P35367) | cell-free assay |  | inhibition | -1.39%

Excerpt of the above (set 2):
Change | fold enrichment [fold]
A2W | 0.379
N5G | 6.68
T15E | 0.829
